Published values collected from several papers.
A part holds a random share of what one study measured.

Study 1 — cell line: HEK-293T; observed: pseudovirus infection; method: FDA-approved drug library screen; organism: VSV pseudotyped with SARS-CoV-2 spike; tested at: 10 µM; time: 16 h; baseline: vehicle-treated
With CCC(Cc1c(I)cc(I)c(N)c1I)C(=O)O (centres unmarked) the GFP-positive cells was 88.3%.
The GFP-positive cells of O=C1Cc2cc(CCN3CCN(c4nsc5ccccc45)CC3)c(Cl)cc2N1 is reported as 91.3%.
The GFP-positive cells of N[C@@H](Cc1ccc(N(CCCl)CCCl)cc1)C(=O)O is reported as 77.5%.
CC(O)(P(=O)(O)O)P(=O)(O)O gave a GFP-positive cells of 112%.
C[C@H](CCC(=O)O)[C@H]1CC[C@H]2[C@@H]3CC[C@@H]4C[C@H](O)CC[C@]4(C)[C@H]3CC[C@]12C gave a GFP-positive cells of 104%.

Study 2 — method: protein-binding microarray; molecule type: double-stranded DNA, one strand shown; medium: in vitro; tested at: 2540 nM top; notes: 60-bp whole probe; added: salmon DNA 0.4 mg/ml; baseline: random background probes; direction: higher = stronger binding; constant ends, left off below: GCCTAGCAC … GTCTTGATTCGCTTGACGCTGCTG
Target: Interferon regulatory factor 3, full length, phosphomimetic (IRF3, Homo sapiens, UniProt Q14653, residues 1-427, S386D/S396D/S398D/S402D/T404D/S405D)
Target sequence (chain): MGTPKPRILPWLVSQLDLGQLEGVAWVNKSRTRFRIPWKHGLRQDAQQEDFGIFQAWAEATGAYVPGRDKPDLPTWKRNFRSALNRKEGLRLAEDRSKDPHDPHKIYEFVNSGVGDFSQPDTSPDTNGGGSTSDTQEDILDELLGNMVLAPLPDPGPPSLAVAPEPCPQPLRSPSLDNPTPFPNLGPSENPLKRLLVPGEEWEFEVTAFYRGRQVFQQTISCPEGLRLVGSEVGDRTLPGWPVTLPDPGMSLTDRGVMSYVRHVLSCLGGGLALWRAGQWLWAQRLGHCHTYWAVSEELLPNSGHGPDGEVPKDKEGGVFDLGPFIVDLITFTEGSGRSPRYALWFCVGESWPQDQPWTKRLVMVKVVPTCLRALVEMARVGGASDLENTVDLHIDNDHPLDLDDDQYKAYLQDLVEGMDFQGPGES
For `GACGAACTAGGGACTGGAGACGTGCTA`, “fitted relative affinity” read -0.307 z-score.
`GTAGGTTTCGGGACTGGGTTAGTGCTA`: “fitted relative affinity” 4.4 z-score.
`TCAGATTTCAGTTCCGATTAGTGCTAG`: “fitted relative affinity” 4.02 z-score.
For `ACCACTCTTCCTTTACTTTCGTGCTAG`, “fitted relative affinity” read 1.79 z-score.
Under “fitted relative affinity”, `GCATTTTTCTAATTTACTTTGTGCTAG` is recorded as 1.97 z-score.
Under “fitted relative affinity”, `TCATTTTTCATTTTGTTACTGTGCTAG` is recorded as 3.51 z-score.
Under “fitted relative affinity”, `TCATTTCTGTTGTCTGTGACTGTGCTA` is recorded as 1.97 z-score.
`TCACGAGTCCCTATCTCACTGTGCTAG`: “fitted relative affinity” 0.231 z-score.

Study 3 — organism: SARS-CoV-2; observed: cytopathic effect; cells: Vero E6; tested at: 10 µM
The inhibition of CS/C(N)=C(C#N)/C(C#N)=C(\N)SC is reported as -0.9%.
With Oc1ccc(C2CNCCc3c2cc(O)c(O)c3Cl)cc1 (centres unmarked) the inhibition was -7.6%.
For COc1ccc([N+](=O)[O-])c(S(=O)(=O)c2ccc(Cl)cc2)n1, the inhibition was -42.3%.

Study 4 — observed: enzyme activity; mode: inhibitor; tested at: 20 µM
Target: Replicase polyprotein 1ab, polymerase (rep, Severe acute respiratory syndrome coronavirus 2, UniProt P0DTD1)
C[C@]12CC[C@@H](O)C[C@H]1CC[C@@H]1[C@@H]2CC[C@]2(C)C(=O)CC[C@@H]12 gave an inhibition of -2.42%.
COc1cc(S(C)(=O)=O)ccc1Nc1nc2ccc(-c3ccc(NC(=O)[C@H](C)c4ccc(F)cc4)cc3)cn2n1 has an inhibition of 8.05%.
With N=C(N)NC(=O)Cc1c(Cl)cccc1Cl the inhibition was -2.26%.
With NS(=O)(=O)c1nn2cc(-c3ccccc3)nc2s1 the inhibition was 0.02%.
COc1cc(Oc2ccnc3cc(OC)c(OC)cc23)ccc1NC(=O)NC(C)c1nccs1 (centres unmarked) has an inhibition of 5.15%.
With CC(C)(C)c1[nH]cnc1/C=c1\[nH]c(=O)/c(=C/c2ccccc2)[nH]c1=O the inhibition was 17.1%.
For COCC(O)Cn1ccnc1[N+](=O)[O-] (centres unmarked), the inhibition was -2.56%.
CCOC(=O)CC(=O)N1CCSC1COc1ccccc1OC (centres unmarked) has an inhibition of 0.38%.
With CCC(=O)c1ccc(OCC(O)CN2CCN(c3ccccc3)CC2)cc1 (centres unmarked) the inhibition was 2.19%.
With Cc1nc(Cn2cnc3c2c(=O)n(C)c(=O)n3C)no1 the inhibition was 5.61%.
The inhibition of CS(=O)(=O)CCNCc1ccc(-c2ccc3ncnc(Nc4ccc(OCc5cccc(F)c5)c(Cl)c4)c3c2)o1 is reported as -6.53%.
Nc1ncnc2c1ncn2[C@@H]1O[C@H](C(=O)N2CCN(CC(=O)Nc3cccc4c3CNC4=O)CC2)[C@@H](O)[C@H]1O gave an inhibition of 1.52%.
COCC[n+]1c2c(n(Cc3cnccn3)c1C)C(=O)c1ccccc1C2=O has an inhibition of 17.1%.
CCCCCn1cc(C(=O)NC23CC4CC(CC(C4)C2)C3)c(=O)c2cc(-c3ccccc3)ccc21 has an inhibition of 7.83%.
O=C1N=C(N2CCOCC2)CN1c1ccc(Cl)cc1 has an inhibition of -2.68%.
With CCOC(=O)[C@H](CCc1ccccc1)N[C@H]1CCc2ccccc2N(CC(=O)O)C1=O the inhibition was -4.04%.
COC(=O)[C@@H](N)Cc1ccc(O)c(O)c1 gave an inhibition of 2.12%.
For COC(=O)CCC(=O)CN, the inhibition was -0.48%.
For CC(C)OC(=O)C1=CN(C(=O)c2ccc(F)c(F)c2)CC(C)(C)c2c1[nH]c1ccccc21, the inhibition was -0.2%.
CCOc1ccc(Cc2nccc3cc(OCC)c(OCC)cc23)cc1OCC gave an inhibition of 3.63%.
With CSc1ccccc1OCC(O)CNC(C)C (centres unmarked) the inhibition was -0.4%.
With CN(CCc1ccc(Cl)c(Cl)c1)CCN1CCCC1 the inhibition was -3.73%.
With CCOC(=O)c1cnc[nH]1 the inhibition was 3.13%.
With CCCN(C/C=C/I)C1CCc2cccc(O)c2C1 (centres unmarked) the inhibition was 4.61%.
For O=S1(=O)CCN(CN2CCS(=O)(=O)NC2)CN1, the inhibition was 0.23%.

Study 5 — method: universal PBM; molecule type: double-stranded DNA, one strand shown; medium: in vitro; tested at: 600 nM; direction: higher = stronger binding
Target: Sal-like protein 4, full length isoform A (SALL4, Homo sapiens, UniProt Q9UJQ4, residues 1-1053)
UniProt Q9UJQ4, sequence (whole entry, looked up): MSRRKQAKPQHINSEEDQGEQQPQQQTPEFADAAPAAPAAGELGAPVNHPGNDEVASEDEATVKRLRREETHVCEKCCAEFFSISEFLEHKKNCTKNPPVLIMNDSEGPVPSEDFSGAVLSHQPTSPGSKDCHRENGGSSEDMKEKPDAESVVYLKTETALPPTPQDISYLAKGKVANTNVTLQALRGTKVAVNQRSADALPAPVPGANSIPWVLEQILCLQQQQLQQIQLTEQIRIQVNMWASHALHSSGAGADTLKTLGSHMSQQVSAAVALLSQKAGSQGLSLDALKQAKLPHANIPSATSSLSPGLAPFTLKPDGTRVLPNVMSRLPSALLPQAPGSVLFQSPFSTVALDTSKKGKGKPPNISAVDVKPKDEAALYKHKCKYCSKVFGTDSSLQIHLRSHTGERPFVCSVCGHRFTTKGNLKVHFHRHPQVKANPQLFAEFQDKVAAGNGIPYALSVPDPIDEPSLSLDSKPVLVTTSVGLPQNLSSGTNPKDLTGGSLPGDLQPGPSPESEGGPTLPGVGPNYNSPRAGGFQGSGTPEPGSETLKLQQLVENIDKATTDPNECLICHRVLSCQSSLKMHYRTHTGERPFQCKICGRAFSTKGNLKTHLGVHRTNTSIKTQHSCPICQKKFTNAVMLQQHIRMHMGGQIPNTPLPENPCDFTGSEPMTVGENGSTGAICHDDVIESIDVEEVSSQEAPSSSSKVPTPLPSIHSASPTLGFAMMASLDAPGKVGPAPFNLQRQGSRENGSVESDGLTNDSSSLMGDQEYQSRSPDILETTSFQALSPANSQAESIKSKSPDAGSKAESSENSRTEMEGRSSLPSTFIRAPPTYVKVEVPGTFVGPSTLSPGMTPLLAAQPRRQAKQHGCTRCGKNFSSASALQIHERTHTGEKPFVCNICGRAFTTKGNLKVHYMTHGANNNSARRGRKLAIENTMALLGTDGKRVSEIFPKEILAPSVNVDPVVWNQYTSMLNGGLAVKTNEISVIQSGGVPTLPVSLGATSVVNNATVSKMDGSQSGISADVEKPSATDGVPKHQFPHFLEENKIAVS
Notes: 8-mer, flanks averaged, mean of replicates
The E-score of `TCGTTGCA` is reported as 0.0215.
The E-score of `GAGTAAGC` is reported as -0.126.
The E-score of `CAGAGCCC` is reported as -0.214.
With `CTTCCCCC` the E-score was -0.132.
`AGATGCTA` gave an E-score of 0.174.
With `GACGGCAA` the E-score was -0.139.
For `AGTAGGGA`, the E-score was -0.0362.
The E-score of `ATCTTTGA` is reported as 0.166.

Study 6 — method: RNAcompete; molecule type: RNA; medium: in vitro; tested at: 20 nM; notes: 7-mer, probes averaged, single round; baseline: mean of 7-mers; direction: higher = stronger binding
Target: PABPC1L2, full length, GST fusion (mouse, UniProt A0ABA7IW68)
Target sequence (chain): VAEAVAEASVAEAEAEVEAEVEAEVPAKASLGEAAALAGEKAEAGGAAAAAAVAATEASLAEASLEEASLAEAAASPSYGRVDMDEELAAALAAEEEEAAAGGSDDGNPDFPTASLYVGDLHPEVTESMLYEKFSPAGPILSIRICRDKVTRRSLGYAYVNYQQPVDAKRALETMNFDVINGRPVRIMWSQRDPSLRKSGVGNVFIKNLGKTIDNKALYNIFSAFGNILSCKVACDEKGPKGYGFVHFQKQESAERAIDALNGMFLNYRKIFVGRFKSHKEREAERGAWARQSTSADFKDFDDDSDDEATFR
The 7-mer Z-score of `ACGAGUC` is reported as -0.295.
`UGGCCCG` gave a 7-mer Z-score of -0.162.
With `GGCCCCC` the 7-mer Z-score was -0.382.
With `UACGAGC` the 7-mer Z-score was 0.0225.

A few entries again (study 4):
With CCOC(=O)[C@H](CCc1ccccc1)N[C@H]1CCc2ccccc2N(CC(=O)O)C1=O the inhibition was -4.04%.
COC(=O)[C@@H](N)Cc1ccc(O)c(O)c1 gave an inhibition of 2.12%.
For COC(=O)CCC(=O)CN, the inhibition was -0.48%.
For CC(C)OC(=O)C1=CN(C(=O)c2ccc(F)c(F)c2)CC(C)(C)c2c1[nH]c1ccccc21, the inhibition was -0.2%.
CCOc1ccc(Cc2nccc3cc(OCC)c(OCC)cc23)cc1OCC gave an inhibition of 3.63%.
With CSc1ccccc1OCC(O)CNC(C)C (centres unmarked) the inhibition was -0.4%.
With CN(CCc1ccc(Cl)c(Cl)c1)CCN1CCCC1 the inhibition was -3.73%.
With CCOC(=O)c1cnc[nH]1 the inhibition was 3.13%.
